Published values from different studies.
Compare with care: the assays were run in different laboratories. Values joined by “and” are separate records of one study, mostly repeats; a detail may differ.
PRKG1 isoform beta: cGMP-dependent protein kinase 1, isoform beta (PRKG1, Homo sapiens, UniProt Q13976)
PRKG1: cGMP-dependent protein kinase 1 (PRKG1, Homo sapiens, UniProt Q13976)

| Structure (SMILES) | target | test | setting | scale | quantity | value |
| --- | --- | --- | --- | --- | --- | --- |
| Nc1ncc(-c2cc(-c3cnn(CC(F)(F)F)c3)ncc2F)nc1C(=O)NC1CNCC(F)C1 (stereo not drawn) | PRKG1 isoform beta | enzyme activity | 1 µM | baseline: DMSO control | remaining activity | 98.3% |
| O=C(Cc1ccc(OCc2ccccc2)cc1)NC1(C(=O)O)CCN(C(=O)c2ccc(-c3cccc(Cl)c3)cc2)CC1 | PRKG1 isoform beta | kinase activity, inhibitor | 10 µM, with: ATP at Km | – | remaining activity | 107% |
| CN1CC[C@@H](COc2cnc(C#N)cc2-c2ccn3nc(NC(=O)C4CC4)cc3c2)C1 | PRKG1 isoform beta | inhibitor, KinaseProfiler panel | 1 µM | – | inhibition | -6% |
| Nc1ncc2c(n1)-c1c([nH]c3ccc(C4=CCOCC4)cc13)CCC2 | PRKG1 | binding, competition with immobilised ligand | 1 µM | – | remaining binding | 100% |
| C=CC(=O)N1CCc2ccc(-n3c(=O)ccc4cnc5ccc(-c6cnn(C)c6)cc5c43)cc21 | PRKG1 | KINOMEscan | 1 µM | baseline: DMSO control | remaining binding | 88% |
| Cc1cnc2nc1Nc1cccc(c1)COC/C=C/COCc1cc(ccc1OCCN1CCOCC1)N2 | PRKG1 | binding | 0.1 µM | – | remaining binding | 100% |
| C=CC(=O)Nc1cccc(-c2cnc3[nH]cc(C(=O)NC(C)(C)C)c3n2)c1 | PRKG1 | kinase activity | 0.1 µM | – | inhibition | 6% and 4% |
| NC(=O)[C@@H](O)C[C@H]1CCc2sc3ncnc(O[C@H]4CC[C@H](N5CCOCC5)CC4)c3c21 | PRKG1 isoform beta | radioisotope kinase | 10 µM | – | inhibition | 0% |
| COc1c(Cl)cccc1Nc1c(-c2ccncc2C#C[C@@]2(C)CCCN2C(=O)/C=C/CN(C)C)[nH]c2c1C(=O)NCC2 | PRKG1 | binding, competition with immobilised ligand | 3 µM | – | remaining binding | 100% |
| CCn1cc(C(=O)O)c(=O)c2c(N)c(F)c(NC3CCCCC3)cc21 | PRKG1 | kinase activity | 0.1 µM, with: ATP at Km | – | inhibition | -2.7% |
| COc1cc(Nc2nccc(-c3cnn4nc(OC)ccc34)n2)cc(C(F)(F)F)c1 | PRKG1 | binding, competition with immobilised ligand | 1 µM | – | remaining binding | 100% |
| NC(=O)C[C@H]1CCc2sc3ncnc(O[C@H]4CC[C@H](N5CCOCC5)CC4)c3c21 | PRKG1 isoform beta | radioisotope kinase | 10 µM | – | inhibition | -1% |
| Cc1nc2c(F)cc(-c3nc(Nc4ccc(CNC(=O)CCCCCCC(=O)NO)cc4)ncc3F)cc2n1C(C)C | PRKG1 | enzyme activity, inhibitor | 1 µM | – | inhibition | 81% |
| CNC(=O)C1CCN(c2cc(C)c(F)cc2NC(=O)c2ccc(-c3cc(O)ccc3C)c(C)c2)CC1 | PRKG1 | binding, competition with immobilised ligand | 1 µM | – | remaining binding | 100% |
| Cc1cccc(O[C@H]2CCC[C@@H](C(C)CNCc3ccncc3)C2)c1 (relative stereo) | PRKG1 | enzyme activity, inhibitor | 1 µM | – | inhibition | 3% |
| COc1ccc(NC(=O)Nc2ccc3c(c2)C(=O)N(C(C)CO)CC(C)C(CN(C)Cc2ccc4c(c2)OCO4)O3)cc1 (stereo not drawn) | PRKG1 isoform beta | kinase activity, KinaseProfiler | 0.03 µM, species human | baseline: control | remaining activity | 105% |
| CNC(=O)C[C@H](Cc1ccc(C#N)cc1)NC(=O)c1cc(-c2ccc(CN[C@H](C)c3ccc(C)cc3)o2)ccc1Cl | PRKG1 | enzyme activity, inhibitor | 1 µM | – | activity vs control | 94% |
| CNC1C[S+]2CC[S+]3CC[S+](C1)[Ru-4]321([N]=C=S)[n]2c3ccc(OC)cc3c3c4c(c5cc(F)c[n+]1c5c32)C(=O)NC4=O (stereo not drawn) | PRKG1 | KinomeScan | 0.1 µM | baseline: untreated | remaining binding | 63% |
| COc1c(OCCCN2CCOCC2)ccc2c1N=C(NC(=O)c1cnc(N)nc1)N1CCN=C21 | PRKG1 | kinase activity, inhibitor | 1 µM | baseline: untreated control | remaining activity | 108% |
| O=C=[N][Ru-4]123([n]4c5ccc(O)cc5c5c6c(c7cc(F)c[n+]1c7c54)C(=O)NC6=O)[S+]1CC[S+]2CC[S+]3CC1 (stereo not drawn) | PRKG1 isoform beta | enzyme activity | 100 nM, human enzyme, with: 10 µM ATP | baseline: untreated | remaining activity | 24% |
| Cc1c[nH]c2nccc(-c3ccc(C(=O)N[C@@H]4c5c(F)cc(C(F)F)cc5C[C@@H]4O)cn3)c12 | PRKG1 | binding, competition with immobilised ligand | 3 µM | – | remaining binding | 8.5% |

For quick reference, copied from above:
| Structure (SMILES) | target | test | setting | scale | quantity | value |
| --- | --- | --- | --- | --- | --- | --- |
| Cc1cnc2nc1Nc1cccc(c1)COC/C=C/COCc1cc(ccc1OCCN1CCOCC1)N2 | PRKG1 | binding | 0.1 µM | – | remaining binding | 100% |
| NC(=O)C[C@H]1CCc2sc3ncnc(O[C@H]4CC[C@H](N5CCOCC5)CC4)c3c21 | PRKG1 isoform beta | radioisotope kinase | 10 µM | – | inhibition | -1% |
